Experimental data gathered from unrelated publications.
A part holds a random share of what one study measured. Positions count from the first letter of the parent shown.

Series 1
Target: ABI1, truncated, D143A, DHFR fusion (Arabidopsis thaliana)
Technique: DHFR PCA, deep sequencing
Matrix: yeast
Notes: methotrexate growth selection, single substitutions
Together with: (+)-ABA 1.4 µM
Relative to: wild-type fitted maximum
Direction: higher = stronger binding
Starting sequence: PYL1, truncated, DHFR fusion (Arabidopsis thaliana); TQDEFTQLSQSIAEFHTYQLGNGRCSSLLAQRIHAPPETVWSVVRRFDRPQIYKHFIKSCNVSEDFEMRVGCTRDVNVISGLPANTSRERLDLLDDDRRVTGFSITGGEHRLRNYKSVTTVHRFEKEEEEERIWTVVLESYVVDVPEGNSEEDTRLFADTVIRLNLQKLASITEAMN
`E14C` — result for “relative binding score”: 6.28%.
Under “relative binding score”, `N22Q` is recorded as 64.7%.
`T73V` — result for “relative binding score”: 67.9%.
Under “relative binding score”, `N77P` is recorded as -5.15%.
Under “relative binding score”, `D92E` is recorded as 27.5%.
`L112C`: “relative binding score” -11.5%.
Under “relative binding score”, `W41C` is recorded as -2.14%.
For `M68W`, “relative binding score” read 1.72%.
Under “relative binding score”, `Q167L` is recorded as 51.3%.
For `N22G`, “relative binding score” read 50.2%.
For `G23T`, “relative binding score” read 18.4%.
`H16A`: “relative binding score” 1.58%.
Under “relative binding score”, `F157K` is recorded as 1.31%.
For `E67A`, “relative binding score” read 38.3%.
Under “relative binding score”, `R99P` is recorded as 3.44%.
For `E125H`, “relative binding score” read 66.7%.
`Q10K` — result for “relative binding score”: 71.4%.
`V100G`: “relative binding score” -0.932%.

Series 2
Target: CCNA1, cyclin fold, Cln2 fusion (human)
Technique: yeast growth competition, sequencing
Matrix: yeast
Notes: weak parent motif
Relative to: not given
Direction: higher = stronger binding
Starting sequence: RBL1 docking peptide (human); GSAKRRLFGEDPP; partner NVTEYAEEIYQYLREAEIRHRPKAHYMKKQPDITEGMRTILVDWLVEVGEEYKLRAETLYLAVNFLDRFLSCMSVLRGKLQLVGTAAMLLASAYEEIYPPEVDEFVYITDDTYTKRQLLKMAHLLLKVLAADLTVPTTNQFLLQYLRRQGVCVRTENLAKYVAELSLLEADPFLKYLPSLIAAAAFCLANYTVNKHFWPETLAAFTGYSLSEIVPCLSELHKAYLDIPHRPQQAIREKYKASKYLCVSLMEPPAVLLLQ
Under “normalised enrichment score”, `P13A` is recorded as 0.598.
`L7W` — result for “normalised enrichment score”: 0.457.
`P13Y` — result for “normalised enrichment score”: 0.315.
For `A3P`, “normalised enrichment score” read 0.25.
`S2E`: “normalised enrichment score” 0.496.
For `L7K`, “normalised enrichment score” read 0.247.
Under “normalised enrichment score”, `P12A` is recorded as 0.519.
Under “normalised enrichment score”, `D11T` is recorded as 0.632.
`R5I`: “normalised enrichment score” 0.0777.
Under “normalised enrichment score”, `S2Y` is recorded as 0.639.
For `F8I`, “normalised enrichment score” read 0.0652.
`P12H`: “normalised enrichment score” 0.356.
`R5H` — result for “normalised enrichment score”: 0.162.

Series 3
Target: CDC34 UBC core domain (UniProt P49427)
Technique: yeast two-hybrid
Matrix: yeast
Notes: mostly zero background
Relative to: not given
Direction: higher = stronger interaction
B1: RNF25 RING domain (UniProt Q96BH1); chain LTDNNIPHGQCVICLYGFQEKEAFTKTPCYHYFHCHCLARYIQHMEQELKAQGQEQEQERQHATTKQKAVGVQCPVCREPLVYDLASL
B2: RNF170 RING domain (UniProt Q96K19); chain TRQQFYTDMYCPICLHQASFPVETNCGHLFCGACIIAYWRYGSWLGAISCPICRQTVTLLLTVF
B3: IRF2BPL RING domain (UniProt Q9H1B7); chain SPMANSGPLCCTICHERLEDTHFVQCPSVPSHKFCFPCSRESIKAQGATGEVYCPSGEKCPLVGSNVP
B4: ZNF598 RING domain (UniProt Q86UK7); chain AAAPERGGGSCVLCCGDLEATALGRCDHPVCYRCSTKMRVLCEQRYCAVCREELRQVVFGK
Target sequence (chain): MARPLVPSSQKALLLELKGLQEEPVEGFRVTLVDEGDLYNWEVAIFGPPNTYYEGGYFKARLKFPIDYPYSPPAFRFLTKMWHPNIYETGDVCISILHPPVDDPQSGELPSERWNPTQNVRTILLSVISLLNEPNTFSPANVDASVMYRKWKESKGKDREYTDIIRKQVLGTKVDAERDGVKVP
`B1 (RNF25 RING domain)` — result for “lacZ reporter activity”: 0.
Under “lacZ reporter activity”, `QLQDIKEQTMCPVCLDRLKNMIFLCGHGTCQLCGDRMSECPICRKAIERRILLY (MIB1 RING domain (UniProt Q86YT6))` is recorded as 0.
`B2 (RNF170 RING domain)` — result for “lacZ reporter activity”: 0.
`B3 (IRF2BPL RING domain)` — result for “lacZ reporter activity”: 0.
For `YWAMDSTFELCKICAESNKDVKIEPCGHLLCSCCLAAWQHSDSQTCPFCRCEIKGWEAVS (CBLC RING domain (UniProt Q9ULV8))`, “lacZ reporter activity” read 0.
`FPEHFVKSISCQICEHILADPVETNCKHVFCRVCILRCLKVMGSYCPSCRYPCFPTDLES (RAG1 RING domain (UniProt P15918))`: “lacZ reporter activity” 0.
For `B4 (ZNF598 RING domain)`, “lacZ reporter activity” read 0.

Series 4
Target: RNA binding protein fox-1 homolog 2, RRM domain, GST-SBP tag (RBFOX2, Homo sapiens, UniProt O43251-10, residues 100-194)
Technique: RNA Bind-n-Seq
Molecule type: RNA
Matrix: in vitro
Tested at: 365 nM
Notes: natural RNA segment, single round, ends assumed
Relative to: no-protein control
Direction: higher = stronger binding
All sequences stand within: GGGAGUUCUACAGUCCGACGAUC … UGGAAUUCUCGGGUGCCAA
Construct (chain): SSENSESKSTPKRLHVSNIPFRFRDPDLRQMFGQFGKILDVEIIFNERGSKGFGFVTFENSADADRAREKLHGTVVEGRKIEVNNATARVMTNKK
Under “RBNS enrichment (R)”, `CUGGUUUGACUGUGGAUUAUUUCCUGGGUAUUAGUGGGACCCAACAGCACAUUGCUAUUAAUAGUAUGGAAAUAAUGGUCCCUCUGUUUCAUUGAAUUGCUGAAGUAAUG` is recorded as 0.535.
For `CAAUGCCUGGACCUGUCCACCUGAGAGGCCCCUGGGGCCUCCCCAGCUGCUGGCCAGACCCUGGCGCUGCCACAGUCCUGGCACUGCCCAAGGCCAUACCUGCCUAGCCC`, “RBNS enrichment (R)” read 0.192.
`UGAAGUUUUCAGAAGCAUGGGCAGUCGGCAGUAGUAACAGAGUCUCACCCCAGAAGGAAAAGAGGGGAUAGGGAAAACAAAAGAUUAUGCAAGCCCCCAGCCCUUCCUGA`: “RBNS enrichment (R)” 38.
For `UGAUCUUAGUGAUCCCCCUACUACUACCACCAAUUCACUUCACAAAGUCAGUUAUGAGUCUACCAGACUUUGUUCUGAAAAAUAGAAACAAAACACCUGAUUAAGCUCUU`, “RBNS enrichment (R)” read 0.608.
`AAUAUUAAUAUCUACCAACACAUAGACUUCCUAAAAUCGAUAUAUUGCUUGAAUCACACUUUUACUGUGGCUGAAUUUUUUGUGCCUAGUUAUAAAAAAGACACUUCGAA`: “RBNS enrichment (R)” 1.49.
For `CAGCUUUCAGAGCCAGUGAAGGAGCCACGUGAAUGGCCCUAGAACUGUGCCUAGUUCCUGUGGCCAGGAGGUUGGUGACUGAAACAUUCACACAGGGCUCUUUGAUGGAC`, “RBNS enrichment (R)” read 0.509.
`UUCUAGCCACUCCACAAACCACUAAAAUUUUAGUUUUAGCCUAUCACUCAUGUCAAUCAUAUCUAUGAGACAAAUGUCUCCGAUGCUCUUCUGCGUAAAUUAAAUUGUGU` — result for “RBNS enrichment (R)”: 0.852.
`CUCCCUCAUUUUCUCUCAUCAUGUAGGAAAGAGUGGGACCCCCUCCCAACCCCUUUCUGUUAAAGCCUCCUAAGUGGUCAUUACUACUUUGUAGACAUUGGUAUUUGUUU` — result for “RBNS enrichment (R)”: 0.681.

Series 5
Target: Histone acetyltransferase KAT6A, both winged helices, GST fusion (KAT6A, Homo sapiens, UniProt Q92794, residues 1-181)
Technique: protein binding microarray
Molecule type: double-stranded DNA, one strand shown
Matrix: in vitro
Tested at: not given
Notes: 8-mer, flanks averaged, mean of 2 arrays, mostly near background
Relative to: not given
Direction: higher = stronger binding
Target sequence (chain): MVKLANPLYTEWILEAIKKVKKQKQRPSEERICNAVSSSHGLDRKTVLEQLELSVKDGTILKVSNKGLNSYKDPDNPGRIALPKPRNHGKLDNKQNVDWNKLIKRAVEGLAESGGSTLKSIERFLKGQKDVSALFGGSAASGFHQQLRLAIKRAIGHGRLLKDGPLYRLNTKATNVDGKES
For `CAAGATAA`, the E-score was -0.104.
With `AATGTCGA` the E-score was -0.18.
With `CAACCATG` the E-score was -0.00705.
For `GAACTTCC`, the E-score was -0.018.
`ACCTTGTA` gave an E-score of -0.13.
`CCTGGCTC` gave an E-score of 0.0169.
`AGTCGGAC` gave an E-score of 0.0399.
`CGGGACAG` has an E-score of 0.212.
`CGTTGGTA` gave an E-score of 0.133.
With `CGCGTTCA` the E-score was 0.248.
For `ATTTCCAC`, the E-score was -0.0516.
`GAGACGCA` has an E-score of 0.218.
With `GCAGTTCA` the E-score was 0.084.
The E-score of `TAAGCTGA` is reported as -0.0394.
The E-score of `GCCTAGAC` is reported as 0.0135.
For `ACAGAGGT`, the E-score was -0.0703.
`AGAGGTTC` gave an E-score of 0.123.
The E-score of `ATGCACGA` is reported as -0.0772.
With `CGGATAAC` the E-score was 0.13.
With `CCTTGCAA` the E-score was -0.13.
The E-score of `AAGTATGC` is reported as -0.028.
The E-score of `ACAACAGT` is reported as -0.0793.

Repeated from above (series 1):
For `M68W`, “relative binding score” read 1.72%.
For `N22G`, “relative binding score” read 50.2%.
`Q10K` — result for “relative binding score”: 71.4%.
`T73V` — result for “relative binding score”: 67.9%.
Under “relative binding score”, `N22Q` is recorded as 64.7%.
Under “relative binding score”, `Q167L` is recorded as 51.3%.
